# Measurements pooled from the literature.
# Compare with care: the assays were run in different laboratories. ± marks the error that the study gave.
# Organism: Acinetobacter baumannii
Compound,assay,test system,setting,scale,MIC
CCN1CCC(CCNCc2cc3ccccc3nc2SCc2ccccc2)CC1,"microbial growth, broth dilution",,,,64 µg/mL
CC(C)[C@@H]1NC(=O)[C@@H]2CCCN2C(=O)[C@@H](C)NC(=O)[C@H](CO)NC(=O)[C@H](C)NC(=O)[C@H](C(C)(C)C)NC(=O)[C@H](CCO)NC(=O)[C@H](Cc2c[nH]c3ccccc23)NC(=O)[C@H](CCO)NC(=O)[C@@H](CCN)NC(=O)[C@H](CCC(N)=O)NC(=O)[C@H](CCN)NC(=O)[C@H](Cc2ccc(O)cc2)NC(=O)[C@H]([C@@H](C)O)NC1=O,broth microdilution,"multidrug-resistant, CAMHB with 0.002% polysorbate-80","16 h, 37 °C",,> 64 µg/mL
CC(C)C[C@H](NC(=O)[C@H](Cc1ccc(O)cc1)NC(=O)[C@@H]1CCCN1C(=O)[C@H](CCCNC(=N)N)NC(=O)[C@@H]1CCCN1C(=O)[C@H](CCCCN)NC(=O)[C@H](CC(=O)O)NC(=O)[C@@H]1CCCN1C(=O)[C@H](CCCNC(=N)N)NC(=O)C1(N)CCCCC1)C(=O)N1CCC[C@H]1C(=O)N[C@@H](CCCNC(=N)N)C(=O)N1CCC[C@H]1C(=O)N[C@@H](CCCNC(=N)N)C(=O)N1CCC[C@H]1C(=O)N1CCC[C@H]1C(=O)N[C@@H](CCCNC(=N)N)C(=O)N1CCC[C@H]1C(=O)N[C@H](C(=O)N[C@@H](CCCNC(=N)N)C(=O)N[C@@H](CSCc1ccccc1CSC[C@H](NC(=O)[C@H](CCCNC(=N)N)NC(=O)[C@@H](NC(=O)[C@@H]1CCCN1C(=O)[C@H](CCCNC(=N)N)NC(=O)[C@@H]1CCCN1C(=O)[C@@H]1CCCN1C(=O)[C@H](CCCNC(=N)N)NC(=O)[C@@H]1CCCN1C(=O)[C@H](CCCNC(=N)N)NC(=O)[C@@H]1CCCN1C(=O)[C@H](CC(C)C)NC(=O)[C@H](Cc1ccc(O)cc1)NC(=O)[C@@H]1CCCN1C(=O)[C@H](CCCNC(=N)N)NC(=O)[C@@H]1CCCN1C(=O)[C@H](CCCCN)NC(=O)[C@H](CC(=O)O)NC(=O)[C@@H]1CCCN1C(=O)[C@H](CCCNC(=N)N)NC(=O)C1(N)CCCCC1)C(C)C)C(=O)NN)C(=O)NN)C(C)C,bacterial growth,"ATCC 19606, 100% Mueller-Hinton broth","90 min, 37 °C, strain ATCC 19606",,16.2 ± 2.8 µg/mL
CC(C)C[C@@H]1NC(=O)[C@@H](Cc2ccccc2)NC(=O)[C@H](CCN)NC(=O)[C@@H](NC(=O)[C@H](CN)NC(=O)[C@@H](NC(=O)CC(CN)Cc2ccccc2)[C@@H](C)O)CCNC(=O)[C@H]([C@@H](C)O)NC(=O)[C@H](CCN)NC(=O)[C@H](CCN)NC1=O (stereo partly shown),broth microdilution,"ATCC 19003, cation-adjusted Mueller-Hinton broth",,,2 µg/mL
CC[C@H](C)[C@H](NC(=O)[C@H](C)NC(=O)[C@@H](NC(=O)[C@H](CC(=O)O)NC(=O)[C@H](CCCCN)NC(=O)[C@H](CO)NC(=O)[C@@H](NC(=O)[C@H](CC(N)=O)NC(=O)[C@H](C)NC(=O)[C@@H](NC(=O)[C@H](CCC(=O)O)NC(=O)[C@H](CCCCN)NC(=O)[C@@H](NC(=O)[C@@H](NC(=O)[C@H](Cc1c[nH]cn1)NC(=O)[C@H](CCCCN)NC(=O)[C@@H](NC(=O)[C@H](CCCCN)NC(=O)[C@H](CCCCN)NC(=O)[C@@H](NC(=O)[C@H](CC(C)C)NC(=O)[C@H](CCCCN)NC(=O)[C@H](CC(N)=O)NC(=O)[C@H](Cc1ccccc1)NC(=O)[C@H](CCCNC(=N)N)NC(=O)[C@H](CCCCN)NC(=O)[C@H](CCCNC(=N)N)NC(=O)[C@H](Cc1ccccc1)NC(=O)CN)C(C)C)C(C)C)[C@@H](C)O)[C@@H](C)CC)[C@@H](C)O)C(C)C)C(C)C)C(=O)N[C@H](C(=O)N[C@@H](C)C(=O)NCC(=O)N[C@@H](CO)C(=O)NCC(=O)N[C@H](C(=O)N[C@@H](C)C(=O)N[C@H](C(=O)NCC(=O)N[C@@H](C)C(=O)N[C@@H](C)C(=O)N[C@@H](CCSC)C(N)=O)C(C)C)C(C)C)C(C)C,,"isolate RKI 19/09, CAMHB",,,4 µg/mL
CC[C@H](C)[C@H](NC(=O)[C@H](CCCN)NC(=O)[C@H](CC(N)=O)NC(=O)[C@H](CC(C)C)NC(=O)[C@H](Cc1ccccc1)NC(=O)[C@H](CCCN)NC(=O)[C@H](CCCCNC(=N)N)NC(=O)[C@H](CC(C)C)NC(=O)[C@H](CC(C)C)NC(=O)[C@H](CCCN)NC(=O)[C@H](CCCCNC(=N)N)NC(=O)[C@H](CC(C)C)NC(=O)CNC(C)=O)C(=O)N[C@@H](CCCN)C(=O)N[C@@H](CCCCNC(=N)N)C(N)=O,"bacterial growth, broth microdilution",multidrug-resistant,,,6.25 µM
O=C(NCCNCCO)c1cn(Cc2ccccc2)c2cc(Cl)c(OCc3ccc(Cl)cc3)cc2c1=O,,ATCC 19606,,≥80% growth inhibition,< 0.25 µg/mL
CCCCCCCCCCCCCC(=O)N[C@H](CCN)C(=O)N[C@H](C(=O)N[C@@H](CCN)C(=O)N[C@@H](CC(C)C)C(=O)N[C@H]1CCNC(=O)[C@H](CC(=O)O)NC(=O)[C@H](C(C)C)NC(=O)[C@@H](Cc2ccc(O)cc2)NC(=O)[C@H](CCN)NC(=O)[C@H](CC(C)C)NC(=O)[C@@H](Cc2ccccc2)NC1=O)[C@@H](C)O,broth microdilution,BNCC 194496,,,4 µg/mL
CC[C@H](C)[C@H](NC(=O)[C@@H](CCCNC(=N)N)NC(=O)[C@H](CCCNC(=N)N)NC(=O)[C@@H]1CCCN1C(=O)[C@@H]1CCCN1C(=O)[C@H](CCCNC(=N)N)NC(=O)[C@@H]1CCCN1C(=O)[C@H](CCCNC(=N)N)NC(=O)[C@@H]1CCCN1C(=O)[C@H](CC(C)C)NC(=O)[C@H](Cc1ccc(O)cc1)NC(=O)[C@@H]1CCCN1C(=O)[C@@H]1CCCN1C(=O)[C@H](CCCCN)NC(=O)[C@H](CCCNC(=N)N)NC(=O)[C@@H](N)C(C)C)C(=O)N[C@@H](Cc1ccc(O)cc1)C(=O)N[C@@H](CC(N)=O)C(=O)N[C@H](CCCNC(=N)N)C(N)=O,broth microdilution,DSM 30008,18 h,,8 µg/mL
NCCCC[C@@H]1NC(=O)[C@@H](CCCCN)NC(=O)[C@H](CCCCN)NC(=O)[C@@H](CCCCN)NC(=O)[C@H](Cc2c[nH]c3ccccc23)NC(=O)[C@@H](Cc2c[nH]c3ccccc23)NC(=O)[C@@H](N)CSCc2ccc(cc2)CSC[C@@H](C(N)=O)NC(=O)[C@@H](Cc2c[nH]c3ccccc23)NC(=O)[C@H](Cc2c[nH]c3ccccc23)NC(=O)[C@@H](CCCCN)NC1=O,,19606,,,16 µg/mL

# A few entries again:
Compound,assay,test system,setting,scale,MIC
CC[C@H](C)[C@H](NC(=O)[C@H](C)NC(=O)[C@@H](NC(=O)[C@H](CC(=O)O)NC(=O)[C@H](CCCCN)NC(=O)[C@H](CO)NC(=O)[C@@H](NC(=O)[C@H](CC(N)=O)NC(=O)[C@H](C)NC(=O)[C@@H](NC(=O)[C@H](CCC(=O)O)NC(=O)[C@H](CCCCN)NC(=O)[C@@H](NC(=O)[C@@H](NC(=O)[C@H](Cc1c[nH]cn1)NC(=O)[C@H](CCCCN)NC(=O)[C@@H](NC(=O)[C@H](CCCCN)NC(=O)[C@H](CCCCN)NC(=O)[C@@H](NC(=O)[C@H](CC(C)C)NC(=O)[C@H](CCCCN)NC(=O)[C@H](CC(N)=O)NC(=O)[C@H](Cc1ccccc1)NC(=O)[C@H](CCCNC(=N)N)NC(=O)[C@H](CCCCN)NC(=O)[C@H](CCCNC(=N)N)NC(=O)[C@H](Cc1ccccc1)NC(=O)CN)C(C)C)C(C)C)[C@@H](C)O)[C@@H](C)CC)[C@@H](C)O)C(C)C)C(C)C)C(=O)N[C@H](C(=O)N[C@@H](C)C(=O)NCC(=O)N[C@@H](CO)C(=O)NCC(=O)N[C@H](C(=O)N[C@@H](C)C(=O)N[C@H](C(=O)NCC(=O)N[C@@H](C)C(=O)N[C@@H](C)C(=O)N[C@@H](CCSC)C(N)=O)C(C)C)C(C)C)C(C)C,,"isolate RKI 19/09, CAMHB",,,4 µg/mL
